Measured values gathered from unrelated publications.
Every numbered part comes from another study and shows a few of its results, in no order. Positions count from the first letter of the parent shown.

Block 1
Target: CCNB1, cyclin fold, Cln2 fusion (human)
Method: yeast growth competition, sequencing
Sample: yeast
Setting: weak parent motif
Baseline: not given
Direction: higher = stronger binding
Starting sequence: RBL1 docking peptide (human); GSAKRRLFGEDPP
Change | normalised enrichment score
P12W | 0.294
G9C | 0.959
L7T | -0.32
K4P | 0.0497
S2D | 0.516
L7E | -0.1
D11F | -0.0121
E10Q | 0.123
R5D | -0.0463
D11R | 0.654
P13T | 0.702
R5Y | 0.352
A3I | 1.06
E10L | 1.05
G9E | 0.413
R6S | 0.219
E10S | 0.881
G1H | 0.0933
P13S | 0.407
D11A | 0.447
G1C | 0.0778
A3W | 1.12
E10R | 1.14
P12E | 1.78
F8T | -0.0283

Block 2
Target: CEBPB, bZIP domain (human)
Method: DHFR protein complementation
Sample: yeast
Setting: single substitutions, most at no-binding floor
Baseline: wild-type JUN-FOS pair
Direction: higher = stronger binding
Starting sequence: JUN, bZIP domain (human); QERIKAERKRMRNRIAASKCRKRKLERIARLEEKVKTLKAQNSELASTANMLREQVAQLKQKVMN; partner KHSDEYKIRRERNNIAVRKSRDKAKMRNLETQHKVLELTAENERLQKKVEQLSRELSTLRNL
Change | binding fitness [natural log]
E33H | -1.43
E54T | -1.3
Q41K | -1.38
K39G | -1.45
M51G | -1.35
T48Q | -1.18
K39L | -1.36
L45N | -1.43
L31A | -1.32
Q55K | -1.12
L45Y | -1.48
K39F | -1.47
Q41L | -1.37
A57H | -1.37
A46F | -1.39
R30V | -1.11
A29K | -1.38
L31W | -1.38

Block 3
Target: Histone acetyltransferase KAT6A, winged helix 1, GST fusion (KAT6A, Homo sapiens, UniProt Q92794, residues 1-85)
Method: protein binding microarray
Form: double-stranded DNA, one strand shown
Sample: in vitro
Tested at: not given
Setting: 8-mer, flanks averaged, mean of 2 arrays, mostly near background
Baseline: not given
Direction: higher = stronger binding
Residues (chain): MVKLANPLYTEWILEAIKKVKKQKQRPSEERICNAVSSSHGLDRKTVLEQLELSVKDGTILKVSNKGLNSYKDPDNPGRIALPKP
Strand | E-score
ATTCAGCA | -0.184
AATGGTTC | 0.00359
AATTCCAT | -0.179
AAAATGTG | 0.0379
ATGCTCTA | -0.0492
AGCCAGGC | -0.0981
AACTAACC | -0.00392
AGCTAACA | -0.161
CGTGTTGC | 0.181
TCTACTCA | -0.0384
AGCCCAAG | -0.0993
CTACGGCC | 0.291
AGAGCGTG | 0.268
AGTAAACG | 0.0735
ATATCTCG | -0.0795
AGATCCAG | -0.13
GAGTGCGA | 0.0446
CCTCTCTC | -0.307
GCAACCAC | -0.199
AGCGACCG | 0.213
ATTTAACC | -0.0663

Block 4
Target: Interferon regulatory factor 7, full length, phosphomimetic (IRF7, Homo sapiens, UniProt Q92985, residues 1-503, S471D/S472D/S475D/S476D/S477D/S483D/S484D/S487D)
Method: protein-binding microarray
Form: double-stranded DNA, one strand shown
Sample: in vitro
Tested at: 2200 nM top
Setting: 60-bp whole probe
Added: salmon DNA 0.4 mg/ml
Baseline: random background probes
Direction: higher = stronger binding
All sequences stand within: GCCTAGCAC … GTCTTGATTCGCTTGACGCTGCTG
Construct (chain): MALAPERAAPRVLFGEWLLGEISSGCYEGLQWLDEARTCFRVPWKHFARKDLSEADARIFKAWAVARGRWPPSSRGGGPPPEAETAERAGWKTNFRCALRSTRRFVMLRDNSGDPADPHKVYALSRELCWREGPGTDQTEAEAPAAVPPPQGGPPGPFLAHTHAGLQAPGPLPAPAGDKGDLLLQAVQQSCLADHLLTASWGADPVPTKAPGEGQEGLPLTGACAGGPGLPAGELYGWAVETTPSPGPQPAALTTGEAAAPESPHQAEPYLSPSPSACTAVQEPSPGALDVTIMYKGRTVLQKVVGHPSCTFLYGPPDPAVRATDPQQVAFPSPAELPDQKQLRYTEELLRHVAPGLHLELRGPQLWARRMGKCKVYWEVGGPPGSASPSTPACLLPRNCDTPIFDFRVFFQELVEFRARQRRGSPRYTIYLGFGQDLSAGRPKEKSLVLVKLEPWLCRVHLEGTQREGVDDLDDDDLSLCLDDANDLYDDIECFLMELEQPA
Strand | fitted relative affinity
GACGGTATCGGGTTACGGGACGTGCTA | 0.646 z-score
TCAATTCTCTGCTTGCGACTGTGCTAG | 1.28 z-score
GACGATTCCAGTTTCGAGTCGTGCTAG | 6.85 z-score
CAAGTTTCTCCTTTGTAAATGTGCTAG | 2.86 z-score
ACTTAAACTAGAAACTGACTTGTGCTA | -0.567 z-score
TTAGATCTCGGACTGGATTAGTGCTAG | 0.207 z-score
TCATATGTGTATATATAACTGTGCTAG | 1.03 z-score
TTAGAACTGGGATTTCGATTAGTGCTA | 1.02 z-score
TGAGGTATCGGGTTTCGGTTAGTGCTA | 3.46 z-score
GACGGTTTCCTTCCCCTGACGTGCTAG | 2.72 z-score
CTGAGTCCCTATCTCCTCACGTGCTAG | 1.33 z-score
GACGAACGGGGGTATCGAGACGTGCTA | 0.783 z-score
TTCTTACTTTGGGATTCTGAGTGCTAG | 1.14 z-score
CTGGATCTCAGACTGTGTCCGTGCTAG | 0.787 z-score
TTAGGACTGGGTATCGGCTAGTGCTAG | -0.578 z-score
GACGATTTCGGGTATCGAAACGTGCTA | 2.52 z-score
TTAGGTTTCCTACCGCTTTAGTGCTAG | 0.999 z-score
ATTGAGAATTCCACTCCGCTGTGCTAG | 0.827 z-score
GACGGTATCGGTTTCTGGACGTGCTAG | 2.45 z-score
GACGCTATCGGGACTGGAGACGTGCTA | -0.179 z-score
GACGGTCTCCTTATACTGACGTGCTAG | 1.04 z-score
TCAATGTTCCCTATATAACTGTGCTAG | 1.4 z-score
AGTCTCTGCAGGGAGAGAGCGTGCTAG | -0.639 z-score
TTACGTTTCGGTTTCGGTTAGTGCTAG | 15.2 z-score
GATGGTCTCGGTCTCGGGACGTGCTAG | -0.0201 z-score

Block 5
Target: TAR DNA-binding protein 43, full length, His tag (TARDBP, Homo sapiens, UniProt Q13148, residues 1-414)
Method: RNA Bind-n-Seq
Form: RNA
Sample: in vitro
Tested at: 20 nM
Setting: 6-mer, flanks averaged, single round
Added: 150 mM KCl
Baseline: input library
Direction: higher = stronger binding
Strand | 6-mer enrichment (R)
GAACGG | 1.85
AACAAC | 0.815
UAAUAA | 1.53
UUCCCU | 0.607
UGCGUA | 0.849
AUUGAU | 0.604
AAUCCC | 0.597
CUCUCA | 0.553
GAACAU | 0.691
CGCCCA | 0.676
CGCCCG | 0.748
UAAUAG | 0.728
ACGCGU | 0.833
CGCGAG | 1.45
GCUAUC | 0.62
AGUGUA | 0.931
UGGUAA | 0.819
UGUAAU | 0.681
AGUUGA | 0.768
CAAGAG | 1.05
GGAGCG | 3.91
GAUCGU | 0.782
GAUUGG | 1.45
AUCGAA | 0.634
GCUAGG | 1.73

Block 6
Target: ABI1, truncated, D143A, DHFR fusion (Arabidopsis thaliana, UniProt P49597)
Method: DHFR PCA, dose-response
Sample: yeast
Setting: Hill fit, mean, not affinity
Added: (+)-ABA, dose series
Direction: lower = more sensitive
Starting sequence: PYL1, truncated, DHFR fusion (Arabidopsis thaliana, UniProt Q8VZS8); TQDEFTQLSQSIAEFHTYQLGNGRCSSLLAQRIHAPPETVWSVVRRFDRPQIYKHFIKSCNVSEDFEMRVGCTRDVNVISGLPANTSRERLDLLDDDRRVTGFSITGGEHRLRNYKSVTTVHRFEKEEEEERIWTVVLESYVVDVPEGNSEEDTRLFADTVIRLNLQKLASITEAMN
Change | ABA EC50
S59I | 57.3 µM
D144T | 19.1 µM
S150E | 47.9 µM
F56A | 239 µM
Y53Q | 197 µM
Q19S | 1.92 µM
I172A | 19.8 µM
C72R | 25.4 µM
L82C | 51.7 µM
D48W | 266 µM
S9G | 2.82 µM
S150R | 46.1 µM
V70L | 11.4 µM
E4C | 2.39 µM
E38Y | 55.7 µM
D75E | 0.597 µM
R32Q | 3.02 µM
F66S | 4.81 µM
S59G | 5.78 µM
I79G | 55.6 µM
V70F | 94.5 µM
S117C | 74.5 µM
V136N | 286 µM
V142A | 4.85 µM
F5A | 3.94 µM
